Published values of several laboratories.
Each numbered part is a random draw from the data of one study; scales do not carry over between parts. Changes are numbered by the printed parent chain.

Block 1
Target: CCNB3, cyclin fold, Cln2 fusion (human)
Method: yeast growth competition, sequencing
Matrix: yeast
Setting: strong parent motif
Baseline: not given
Direction: higher = stronger binding
Starting sequence: viral docking peptide; KGVKRKLFAEDSS
Change	normalised enrichment score
A9L	2.46
D11Y	2.2
D11H	2.33
D11P	2.39
D11R	1.33
L7V	0.181
G2D	3.23
D11W	1.47
G2L	2.43
S12R	2.42
K6V	2.59
K4P	0.735
R5I	0.129
S12V	3.32
A9V	3.51
D11E	3.12
G2P	4.02
F8L	0.0276
F8C	0.115
L7K	0.221
R5M	0.413
D11T	2.24
K6I	2.81
G2A	2.11
E10W	1.03

Block 2
Target: ABI1, truncated, D143A, DHFR fusion (Arabidopsis thaliana)
Method: DHFR PCA, deep sequencing
Matrix: yeast
Setting: methotrexate growth selection, single substitutions
Together with: (+)-ABA 17 µM
Baseline: wild-type fitted maximum
Direction: higher = stronger binding
Starting sequence: PYL1, truncated, DHFR fusion (Arabidopsis thaliana); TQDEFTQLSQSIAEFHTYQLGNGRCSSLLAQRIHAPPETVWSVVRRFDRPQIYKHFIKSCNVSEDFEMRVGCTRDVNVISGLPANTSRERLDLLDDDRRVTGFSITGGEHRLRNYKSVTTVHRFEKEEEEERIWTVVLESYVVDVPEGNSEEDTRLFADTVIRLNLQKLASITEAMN; partner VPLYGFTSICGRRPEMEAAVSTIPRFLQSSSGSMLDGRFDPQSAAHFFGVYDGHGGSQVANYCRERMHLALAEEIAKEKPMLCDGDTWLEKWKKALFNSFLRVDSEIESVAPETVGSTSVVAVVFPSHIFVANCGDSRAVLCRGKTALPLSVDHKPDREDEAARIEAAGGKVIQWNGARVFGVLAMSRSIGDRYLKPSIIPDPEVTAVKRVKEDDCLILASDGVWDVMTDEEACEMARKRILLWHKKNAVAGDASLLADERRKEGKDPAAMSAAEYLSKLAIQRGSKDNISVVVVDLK
Change	relative binding score [%]
R123S	92.4
I33P	10.3
R90C	55.9
G71M	-9.16
S171M	81.4
N61P	3.64
S26I	27.6
G107C	28.7

Block 3
Target: NFE2, bZIP domain (human)
Method: DHFR protein complementation
Matrix: yeast
Setting: single substitutions, most at no-binding floor
Baseline: wild-type JUN-FOS pair
Direction: higher = stronger binding
Starting sequence: JUN, bZIP domain (human); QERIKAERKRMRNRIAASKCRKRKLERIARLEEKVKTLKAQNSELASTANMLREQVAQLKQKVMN; partner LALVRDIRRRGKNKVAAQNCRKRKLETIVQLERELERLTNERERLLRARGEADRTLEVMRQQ
Change	binding fitness
N42H	-1.36 natural log
L59S	-1.51 natural log
R30N	-1.51 natural log
S43F	-1.22 natural log
K39W	-1.46 natural log
T48Y	-1.48 natural log
L38G	-1.45 natural log
E33S	-1.36 natural log

Block 4
Target: vanadate, free oxyanion
Method: microfluidic competitive inhibition
Matrix: in vitro, cell-free expressed
Concentration: not given
Setting: derived from inhibition constants, unchanged parent 676 nM
Direction: lower = stronger binding
Starting sequence: PafA, mature enzyme, eGFP fusion (Elizabethkingia meningoseptica, UniProt Q9KJX5); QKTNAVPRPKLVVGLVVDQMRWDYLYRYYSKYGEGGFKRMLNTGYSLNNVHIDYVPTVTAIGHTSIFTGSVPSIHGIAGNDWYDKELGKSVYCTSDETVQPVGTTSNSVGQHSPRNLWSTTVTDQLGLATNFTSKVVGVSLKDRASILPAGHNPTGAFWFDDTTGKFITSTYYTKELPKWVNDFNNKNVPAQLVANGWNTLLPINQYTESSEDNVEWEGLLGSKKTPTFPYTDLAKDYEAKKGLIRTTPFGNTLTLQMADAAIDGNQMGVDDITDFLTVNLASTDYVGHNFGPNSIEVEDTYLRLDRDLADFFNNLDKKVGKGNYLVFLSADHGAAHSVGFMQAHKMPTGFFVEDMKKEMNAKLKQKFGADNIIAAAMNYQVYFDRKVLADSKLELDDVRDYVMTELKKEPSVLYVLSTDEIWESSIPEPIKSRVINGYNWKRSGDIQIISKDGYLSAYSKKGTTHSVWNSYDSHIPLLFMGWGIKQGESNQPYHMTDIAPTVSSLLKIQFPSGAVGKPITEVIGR
Change	oxyanion analog dissociation constant
S146G	1.15 µM
M40V	643 nM
M404V	891 nM
F341V	716 nM
Y325G	2.59 µM
T98G	629 nM
Y455G	539 nM
V270G	680 nM

Block 5
Target: UDP-N-acetylglucosamine--peptide N-acetylglucosaminyltransferase 110 kDa subunit (OGT, Homo sapiens, UniProt O15294)
Sequence of UniProt O15294 (whole entry, looked up): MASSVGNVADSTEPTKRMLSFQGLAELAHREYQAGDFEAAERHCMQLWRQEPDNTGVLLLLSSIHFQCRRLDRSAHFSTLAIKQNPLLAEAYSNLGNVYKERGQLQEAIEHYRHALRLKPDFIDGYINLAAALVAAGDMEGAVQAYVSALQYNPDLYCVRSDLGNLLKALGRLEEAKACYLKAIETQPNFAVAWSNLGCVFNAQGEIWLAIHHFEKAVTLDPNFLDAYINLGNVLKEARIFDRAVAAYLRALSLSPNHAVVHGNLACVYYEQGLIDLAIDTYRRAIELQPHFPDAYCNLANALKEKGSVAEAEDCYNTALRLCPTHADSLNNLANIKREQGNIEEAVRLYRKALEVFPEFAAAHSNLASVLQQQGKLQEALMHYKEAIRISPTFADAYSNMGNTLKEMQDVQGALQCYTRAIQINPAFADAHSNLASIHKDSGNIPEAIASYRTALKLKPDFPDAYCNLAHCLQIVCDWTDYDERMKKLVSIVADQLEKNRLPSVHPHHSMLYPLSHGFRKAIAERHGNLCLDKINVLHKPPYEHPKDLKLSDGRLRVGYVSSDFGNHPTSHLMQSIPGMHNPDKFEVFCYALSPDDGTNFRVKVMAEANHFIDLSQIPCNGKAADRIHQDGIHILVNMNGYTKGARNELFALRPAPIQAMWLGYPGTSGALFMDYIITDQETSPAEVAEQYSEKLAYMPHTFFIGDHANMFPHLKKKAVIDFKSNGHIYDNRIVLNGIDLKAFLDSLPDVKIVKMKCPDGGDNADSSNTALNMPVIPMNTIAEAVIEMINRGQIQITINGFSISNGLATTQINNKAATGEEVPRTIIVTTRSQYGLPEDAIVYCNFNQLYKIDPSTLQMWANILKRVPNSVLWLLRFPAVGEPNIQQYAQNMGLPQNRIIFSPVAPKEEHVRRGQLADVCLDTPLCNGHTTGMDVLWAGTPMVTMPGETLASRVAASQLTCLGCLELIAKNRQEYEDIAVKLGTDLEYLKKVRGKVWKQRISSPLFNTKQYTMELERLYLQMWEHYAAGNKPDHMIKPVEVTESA
Effect on: binding
Method: phage display NGS
Form: peptide
Concentration: concentration not given
Setting: panning round 4
Baseline: input library
Sequence	enrichment fold change
APLFQPKYQINIYGQ	2.39
ESIYKPRYQISIAYA	1.52
NKYQPQYQILYAANR	1.56
QEARSRFTPMYQITI	1.7
APQQYLPAYQIHYNK	1.67
QFMPSYQMQYKMADI	2.13

Repeated from above (block 4):
Change	oxyanion analog dissociation constant
S146G	1.15 µM
M40V	643 nM
M404V	891 nM
F341V	716 nM
Y325G	2.59 µM
T98G	629 nM
Y455G	539 nM
V270G	680 nM
